Measured values from different studies.
Protocols differ between the studies behind these lines.
Target: Serine/threonine-protein kinase PLK3 (PLK3, Homo sapiens, UniProt Q9H4B4)
UniProt Q9H4B4, sequence (whole entry, looked up): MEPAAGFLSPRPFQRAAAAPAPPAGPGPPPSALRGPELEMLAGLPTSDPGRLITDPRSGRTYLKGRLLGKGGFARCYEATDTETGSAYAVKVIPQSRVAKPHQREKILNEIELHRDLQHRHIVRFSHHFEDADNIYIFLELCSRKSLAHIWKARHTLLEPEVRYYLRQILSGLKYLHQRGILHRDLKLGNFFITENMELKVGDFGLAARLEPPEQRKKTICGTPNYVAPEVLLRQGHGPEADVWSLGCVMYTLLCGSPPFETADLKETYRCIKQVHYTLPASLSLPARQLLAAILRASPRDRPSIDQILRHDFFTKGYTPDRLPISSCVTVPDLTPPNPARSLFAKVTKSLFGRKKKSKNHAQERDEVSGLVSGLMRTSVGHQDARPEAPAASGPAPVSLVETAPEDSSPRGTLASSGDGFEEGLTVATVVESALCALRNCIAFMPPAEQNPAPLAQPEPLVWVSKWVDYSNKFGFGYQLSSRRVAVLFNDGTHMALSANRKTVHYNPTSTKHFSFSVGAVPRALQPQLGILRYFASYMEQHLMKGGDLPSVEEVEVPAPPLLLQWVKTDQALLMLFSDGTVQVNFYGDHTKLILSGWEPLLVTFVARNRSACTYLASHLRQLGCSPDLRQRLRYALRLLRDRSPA

The remaining binding of Nc1ccc(/C=C/C(=O)N2CCc3c(oc4c(-c5ccc(F)cc5)cc(-c5ccc(C(=O)N6CCC(F)(F)CC6)cn5)cc34)C2)cn1 is reported as 94% (binding, competition with immobilised ligand; 1 µM).
C[C@H](NCc1ccc(-c2ccc(C(F)(F)F)cc2)cc1)C(N)=O gave an inhibition of 13% (cell-free assay, competition with immobilised ligand; 1 µM).
CN(/N=C/c1ccccc1C(=O)O)c1nc(-c2ccccc2Cl)cs1 gave an inhibition of -10.9% (enzyme activity, inhibitor; 1 µM).
O=C1NC(=O)c2c1c1cc(F)c[n+]3c1c1c2c2cc(O)ccc2[n]1[Ru-4]312([N]=C=S)[S+]3CC[S+]1CC[S+]2CC3 (centres unmarked) has a remaining activity of 102% (enzyme activity; 100 nM, human enzyme, together with: 10 µM ATP; relative to: untreated).
O=C(O)c1ccccc1/C=N/Nc1nc(-c2ccccc2Cl)cs1 gave an inhibition of -3.03% (enzyme activity, inhibitor; 1 µM).
The inhibition of CC(C)[C@H]1NC(=O)C[C@H]2/C=C/CCSSC[C@@H](NC1=O)C(=O)N[C@H](Cc1cccc3ccccc13)C(=O)NCC(=O)O2 is reported as -8.4% (enzyme activity, inhibitor; 10 µM).
For CCOC(=O)[C@@H]1Cc2c(cc([N+](=O)[O-])cc2[N+](=O)[O-])[C@H](O)[C@]12C(=O)Nc1ccc(Br)cc12, the remaining binding was 55% (binding, competition with immobilised ligand; 0.1 µM).
For CS(C)(=O)=Nc1ccc(-c2ccc(-c3nc4cc(O[C@@H]5CO[C@H]6[C@@H]5OC[C@H]6O)[nH]c4cc3F)cc2)cc1, the inhibition was -6% (enzyme activity, inhibitor; 10 µM).

For quick reference, copied from above:
C[C@H](NCc1ccc(-c2ccc(C(F)(F)F)cc2)cc1)C(N)=O gave an inhibition of 13% (cell-free assay, competition with immobilised ligand; 1 µM).
